Measurements of several laboratories.
Each line is one published result; not all experiments were run side by side. Numbers after ± are the reported error.
UniProt O96017, sequence (whole entry, unmodified, looked up): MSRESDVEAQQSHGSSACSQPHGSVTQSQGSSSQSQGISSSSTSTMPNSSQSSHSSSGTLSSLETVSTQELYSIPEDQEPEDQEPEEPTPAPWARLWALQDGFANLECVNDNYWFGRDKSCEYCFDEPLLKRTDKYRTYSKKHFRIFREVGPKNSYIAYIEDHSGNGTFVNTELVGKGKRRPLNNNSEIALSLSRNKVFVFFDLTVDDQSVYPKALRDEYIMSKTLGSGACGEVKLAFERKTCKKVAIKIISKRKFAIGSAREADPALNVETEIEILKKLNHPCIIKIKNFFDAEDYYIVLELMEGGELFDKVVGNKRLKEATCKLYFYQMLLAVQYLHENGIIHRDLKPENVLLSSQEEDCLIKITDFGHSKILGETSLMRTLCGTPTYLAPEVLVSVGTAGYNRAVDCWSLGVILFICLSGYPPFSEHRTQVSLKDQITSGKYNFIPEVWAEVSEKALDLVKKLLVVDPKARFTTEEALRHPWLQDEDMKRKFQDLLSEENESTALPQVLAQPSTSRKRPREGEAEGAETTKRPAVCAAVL
UniProt P20813, sequence (whole entry, looked up): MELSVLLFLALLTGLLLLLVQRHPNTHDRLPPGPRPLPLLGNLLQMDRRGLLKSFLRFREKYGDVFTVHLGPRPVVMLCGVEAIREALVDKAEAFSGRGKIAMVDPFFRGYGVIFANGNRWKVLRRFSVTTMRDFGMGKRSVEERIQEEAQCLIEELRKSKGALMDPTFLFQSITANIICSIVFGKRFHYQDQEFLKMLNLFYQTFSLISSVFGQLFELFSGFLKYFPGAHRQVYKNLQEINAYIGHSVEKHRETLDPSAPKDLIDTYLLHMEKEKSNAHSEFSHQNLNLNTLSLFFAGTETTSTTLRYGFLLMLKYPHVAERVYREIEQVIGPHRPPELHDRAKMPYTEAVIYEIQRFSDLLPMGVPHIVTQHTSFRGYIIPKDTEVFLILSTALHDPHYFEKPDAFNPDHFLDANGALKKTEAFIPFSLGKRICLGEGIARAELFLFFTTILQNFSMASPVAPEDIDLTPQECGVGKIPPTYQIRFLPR

| SMILES | tested on | assay | test system | conditions | scale | endpoint | result |
| --- | --- | --- | --- | --- | --- | --- | --- |
| CC(C)C[C@@H](NC(=O)[C@@H](CCCNC(=N)N)NC(=O)[C@@H](Cc1c[nH]cn1)NC(=O)[C@@H](Cc1c[nH]c2ccccc12)NC(=O)[C@@H](Cc1c[nH]cn1)NC(=O)[C@@H](Cc1ccccc1)NC(=O)[C@H](NC(=O)[C@@H](Cc1ccc(O)cc1)NC(=O)CNC(=O)CNC(=O)CCOCCOCCOCCNC(=O)CN1CCN(CC(=O)O)CCN(CC(=O)O)CC1)[C@H](C)O)C(=O)N[C@H](CC(N)=O)C(=O)N1CCC[C@@H]1C(=O)O [gallium-68 labelled] |  |  | C57BL/6 mice, male, stomach | intravenous, 1.85 MBq, 60 min, added: blocking antibody |  | tissue uptake | 0.84 ± 0.32 %ID/g |
| CS(C)(=O)=Nc1ccc(-c2ccc(-c3nc4cc(O[C@@H]5CO[C@H]6[C@@H]5OC[C@H]6O)[nH]c4cc3F)cc2)cc1 | Serine/threonine-protein kinase Chk2 (CHEK2, Homo sapiens, UniProt O96017, R145W) | enzyme activity, inhibitor |  | 10 µM |  | inhibition | -8% |
| CCCC[C@H]1C(=O)N(C)[C@@H](CCCC)C(=O)N[C@@H](CCCNC(=O)CN2CCN(CC(=O)O)CCN(CC(=O)O)CCN(CC(=O)O)CC2)C(=O)N[C@H](C(=O)NCC(N)=O)CSCC(=O)N[C@@H](Cc2ccc(O)cc2)C(=O)N(C)[C@@H](C)C(=O)N[C@@H](CC(N)=O)C(=O)N2CCC[C@H]2C(=O)N[C@@H](Cc2c[nH]cn2)C(=O)N[C@@H](CC(C)C)C(=O)N(C)CC(=O)N[C@@H](Cc2c[nH]c3ccccc23)C(=O)N[C@@H](CO)C(=O)N[C@@H](Cc2c[nH]c3ccccc23)C(=O)N1C [gallium-68 labelled] |  |  | NOD/SCID mice with CHO-hPD-L1 xenograft, lung | 60 min post injection |  | tissue uptake | 15.6 ± 0.41 %ID/g |
| CN1Cc2cc(Cl)ccc2-n2c(nnc2C2CCN(c3cccc([18F])n3)CC2)C1 |  |  | C57BL/6 mouse male, bone | intravenous, 3.7 MBq, 15 min |  | tissue uptake | 3.73 ± 0.41 %ID/g |
| O=C([O-])CNC(=O)CN1CCN(CC(=O)NCC(=O)[O-])CCN(CC(=O)NCC(=O)[O-])CCN(CC(=O)NCC(=O)[O-])CC1.[177Lu+3] |  |  | Sprague-Dawley rat, blood | intravenous (tail vein), dose not given, 2 h |  | tissue uptake | 0.02 ± 0.005 % injected dose/g |
| CC[C@H](C)[C@H](NC(=O)[C@H](CCCCN)NC(=O)CNC(=O)[C@H](CC(C)C)NC(=O)[C@H](Cc1ccccc1)NC(=O)[C@H](CCCCN)NC(=O)[C@H](CO)NC(=O)[C@H](Cc1ccccc1)NC(=O)[C@H](Cc1c[nH]c2ccccc12)NC(=O)[C@H](CCC(N)=O)NC(=O)[C@@H](NC(=O)[C@H](Cc1ccccc1)NC(=O)CCCCCNC(=O)CN1CCN(CC(=O)O)CCN(CC(=O)O)CCN(CC(=O)O)CC1)C(C)C)C(=O)N[C@@H](CCC(=O)O)C(=O)N1CCC[C@H]1C(=O)N[C@@H](CC(=O)O)C(=O)N[C@H](C(=O)N[C@@H](CO)C(=O)N[C@@H](CCC(N)=O)C(=O)N[C@H](C(=O)N[C@@H](CCC(N)=O)C(=O)N[C@@H](CC(=O)O)C(=O)N1CCC[C@H]1C(=O)N[C@@H](CC(N)=O)C(=O)N[C@@H](CC(=O)O)C(=O)N[C@@H](CCC(N)=O)C(=O)N[C@@H](Cc1ccc(O)cc1)C(=O)N[C@@H](CCC(=O)O)C(=O)N1CCC[C@H]1C(=O)N[C@@H](Cc1ccccc1)C(=O)O)C(C)C)C(C)C [copper-64 labelled] |  |  | C57BL/6 mice, male, tumour-free, pancreas | 0.5 h |  | tissue uptake | 1.67 ± 0.1 %ID/g |
| C[C@H](O)[C@@H](NC(=O)[C@H]1CCCN1C(=O)[C@@H](CCCCN)NC(=O)[C@@H](CO)NC(=O)[C@@H](Cc1ccc(O)cc1)NC(=O)[C@@H](CC(N)=O)NC(=O)CCOCCOCCOCCNC(=O)CN1CCN(CC(=O)O)CCN(CC(=O)O)CCN(CC(=O)O)CC1)C(=O)N[C@H](CC(=O)O)C(=O)N[C@H](CCCNC(=N)N)C(=O)N[C@H](CCC(N)=O)C(=O)N[C@H](Cc1ccc(O)cc1)C(=O)N[C@H](Cc1c[nH]cn1)C(=O)N[C@H](Cc1ccccc1)C(N)=O [gallium-68 labelled] |  |  | BALB/c nude mice U-87 MG tumour, liver | intravenous, 1.85 MBq, 0.5 h, radiolabelled |  | tissue uptake | 0.59 ± 0.43 %ID/g |
| O=C1NC2(CC2)COc2ncc(F)cc2[C@H]2COCCN2c2ccn3ncc1c3n2 |  |  | Sprague-Dawley rat, female, brain | oral, 20 mg/kg/day, 4 weeks dosing, end of recovery |  | organ-to-body weight ratio | 0.674 ± 0.07% |
| COc1ccccc1-c1n[nH]c2nc(NC3CCN(C(=O)Cc4ccc(F)cc4F)CC3)ncc12 |  | bead binding, competition bead pull-down, item: LINJ.05.0090 | Leishmania donovani axenic amastigote extract | 10 µM | reference: vehicle | relative abundance | 0.82 |
| CSCC[C@H](NC(=O)CNC(=O)[C@H](CCCCN)NC(=O)[C@H](CC(C)C)NC(=O)[C@@H]1CCCN1C(=O)[C@H](CO)NC(=O)[C@H](Cc1c[nH]cn1)NC(=O)[C@H](Cc1c[nH]c2ccccc12)NC(=O)[C@H](CCCNC(=N)N)NC(=O)[C@H](CC(C)C)NC(=O)[C@H](CCCNC(=N)N)NC(=O)[C@H](Cc1c[nH]c2ccccc12)NC(=O)[C@H](CS)NC(=O)CCCCCNC(=O)CN1CCN(CC(=O)O)CCN(CC(=O)O)CCN(CC(=O)O)CC1)C(=O)O [copper-64 labelled] |  |  | C57BL/6J mice, B16-F10 tumour, brain | intravenous, 1.85 MBq, 18 h |  | tissue uptake | 0.25 %ID/g |
| CC[C@H](C)[C@H](NC(=O)[C@H](CCCNC(=N)N)NC(=O)[C@H](CCCCN)NC(=O)[C@H](Cc1ccc(O)cc1)NC(=O)[C@H](CC(=O)O)NC(=O)[C@H](C)NC(=O)CNC(=O)CCOCCOCCOCCNC(=O)CN1CCN(CC(=O)O)CCN(CC(=O)O)CCN(CC(=O)O)CC1)C(=O)N[C@H](C(=O)N[C@@H](CC(C)C)C(=O)N[C@@H](CCCCN)C(=O)N[C@H](C(=O)N[C@@H](CC(N)=O)C(N)=O)C(C)C)[C@@H](C)O [copper-64 labelled] |  | ex vivo gamma counting | C57BL/6J male mice, B16-F10 tumour, heart | intravenous, 1.85 MBq, 100 min |  | tissue uptake | 0.44 ± 0.17 %ID/g |
| Cc1cc(-c2ccc3ccccc3c2)nnc1NCCN1CCN(C)CC1 | Cytochrome P450 2B6 (CYP2B6, Homo sapiens, UniProt P20813) | substrate | recombinant enzyme | 100 nM |  | half-life | > 1 h |

Excerpt of the above:
| SMILES | tested on | assay | test system | conditions | scale | endpoint | result |
| --- | --- | --- | --- | --- | --- | --- | --- |
| COc1ccccc1-c1n[nH]c2nc(NC3CCN(C(=O)Cc4ccc(F)cc4F)CC3)ncc12 |  | bead binding, competition bead pull-down, item: LINJ.05.0090 | Leishmania donovani axenic amastigote extract | 10 µM | reference: vehicle | relative abundance | 0.82 |
